Measurements pooled from the literature.
Lines come from different studies, so protocols differ.
Sample: plasma

Compound	test system	setting	Cmax
COc1ccc(C(N)=O)cn1	male Wistar rat	oral, 30 mg/kg	~100000 nM
C/C(N)=N/C(=N\S(=O)(=O)c1ccc(C(F)(F)F)cc1)N1C[C@H](c2ccccc2)C(c2ccc(Cl)cc2)=N1	male Sprague-Dawley rat	oral, 3 mg/kg	321 ng/mL
O=c1c(-c2ccc(Cl)c(CN3CCOCC3)c2)coc2cc(O)ccc12	male Sprague-Dawley rat	oral, 10 mg/kg	532 ng/mL
COc1cc(OC)c2c(=O)cc(-c3cc(C)c(OCCCN4CCN(C)CC4)c(C)c3)oc2c1	male Sprague-Dawley rat	intravenous, 10 mg/kg, single dose	1970 ng/mL
O=C(O)c1c(O)cc(O[C@@H]2O[C@H](CO)[C@@H](O)[C@H](O)[C@H]2O)cc1/C=C/c1ccccc1	male Sprague-Dawley rat	intravenous, 1 mg/kg	6820 ng/mL
CC(=Nc1ccc(N)cc1)N(C)C	male Sprague-Dawley rat	intravenous, 20 mg/kg	3300 ng/mL
Cc1cccc(Cn2ncc3c4cc(F)c(CN(C)C)cc4n(C)c3c2=O)n1	Sprague-Dawley rat	oral, 10 mg/kg	301 ng/mL
C=C(NC(=O)c1csc(-c2nc3c(cc2O)-c2nc(cs2)C(=O)NC(C(C)O)C(=O)NC(=C(C)OC)c2nc(cs2)C(=O)NC2c4nc(cs4)C(=O)NC(COC(=O)c4c5c6c(cccc6n4O)COC(=O)C(OC4CC(C)(O)C(N(C)C)C(C)O4)C2OC5)c2nc-3cs2)n1)C(N)=O (stereo not drawn)	male Sprague-Dawley rat	intravenous, 18 mg/kg, single dose, infusion	5880 ng/mL
Cc1cccc(C)c1CNc1cc(C(=O)N2CCC2)cn2c(C)c(C)nc12	male Sprague-Dawley rat	oral, 10 mg/kg	303 ng/mL
Cc1cc2c(cc1O)C=C1C=CC(=O)C(C)(C)[C@H]1CC2	male Sprague-Dawley rat	intravenous, 2 mg/kg	1140 ng/mL
CC(C)C[C@H](NC(=O)[C@H](CCCN)NC(=O)CNC(=O)[C@@H](NC(=O)[C@H](C)NC(=O)[C@@H]1CSCSC[C@H](NC(=O)CC[C@H](N)C(=O)O)C(=O)N[C@@H](CC(N)=O)C(=O)N[C@@H]([C@@H](C)O)C(=O)N[C@@H](C)C(=O)N[C@@H]([C@@H](C)O)C(=O)N1)[C@@H](C)O)C(=O)N[C@@H](C)C(=O)N[C@@H](CCC(=O)O)C(=O)N[C@@](C)(Cc1ccccc1)C(=O)N[C@@H](CC(C)C)C(=O)N[C@H](C(=O)N[C@@H](CCCNC(=N)N)C(=O)N[C@@H](CO)C(=O)N[C@@H](CO)C(=O)N[C@@H](CC(N)=O)C(=O)N(C)[C@@H](CC(N)=O)C(=O)N[C@@H](Cc1ccccc1)C(=O)NCC(=O)N1CCC[C@H]1C(=O)N[C@@H](CCCCNC(=O)CC[C@H](NC(=O)CC[C@H](NC(=O)CCCCCCCCCCCCCCCCCCC(=O)O)C(=O)O)C(=O)O)C(=O)N[C@@H](CC(C)C)C(=O)N1CCC[C@H]1C(=O)N1CCC[C@H]1C(=O)N[C@H](C(=O)N[C@@H](CCC(=O)O)C(=O)N[C@H](C(=O)NCC(=O)N[C@@H](CO)C(=O)N[C@@H](CC(N)=O)C(=O)N[C@H](C(=O)N[C@@H](Cc1ccc(O)cc1)C(N)=O)[C@@H](C)O)C(C)C)[C@@H](C)O)C(C)C	male Sprague-Dawley rat	subcutaneous, 30 nmol/kg, single dose	146 nM
OC1(C(F)(F)F)CCN(c2nc(Nc3ccnc(C(F)(F)F)c3)nc(-c3cccc(C(F)(F)F)n3)n2)C1 (stereo not drawn)	Sprague-Dawley rat	oral, 10 mg/kg	558 ng/mL
COC(=O)C1=CNC=C(C(=O)OC)C1c1ccc(F)c(C(F)(F)F)c1	male Sprague-Dawley rat	intravenous, 5 mg/kg	1380 ng/mL
CCC(CC)n1c(Cc2ccco2)nc2cc(C(=O)N[C@@H](CC(=O)O)c3ccccc3)ccc21	male Sprague-Dawley rat	intravenous, 1 mg/kg	964 ng/mL
CC(=O)O[C@@H]1CC[C@@]2(C)[C@@H](CC[C@]3(C)[C@@H]2C(=O)C=C2[C@@H]4[C@@H](C)[C@H](C)CC[C@]4(C)CC[C@]23C)[C@@]1(C)C(=O)O	female Wistar rat	oral, 1 mg/kg	3360 ng/mL
COCCN(C)CC(=O)NC(Cc1ccc(-c2ccccc2)cc1)B(O)O (stereo not drawn)	rat	oral, 1 mg/kg	1400 nM
CCC(CC)n1c(Cc2cccs2)nc2cc(C(=O)N[C@@H](CC(=O)O)c3ccccc3)ccc21	male Sprague-Dawley rat	intraperitoneal, 10 mg/kg	1670 ng/mL
COC1C(c2ccc(Cl)c(Cc3ccc(OC4CCOC4)cc3)c2)OC(CO)C(O)C1O (stereo not drawn)	Sprague-Dawley rat	intravenous, 2.5 mg/kg	3030 ng/mL

Repeated from above:
Compound	test system	setting	Cmax
COC(=O)C1=CNC=C(C(=O)OC)C1c1ccc(F)c(C(F)(F)F)c1	male Sprague-Dawley rat	intravenous, 5 mg/kg	1380 ng/mL
Cc1cccc(C)c1CNc1cc(C(=O)N2CCC2)cn2c(C)c(C)nc12	male Sprague-Dawley rat	oral, 10 mg/kg	303 ng/mL
C=C(NC(=O)c1csc(-c2nc3c(cc2O)-c2nc(cs2)C(=O)NC(C(C)O)C(=O)NC(=C(C)OC)c2nc(cs2)C(=O)NC2c4nc(cs4)C(=O)NC(COC(=O)c4c5c6c(cccc6n4O)COC(=O)C(OC4CC(C)(O)C(N(C)C)C(C)O4)C2OC5)c2nc-3cs2)n1)C(N)=O (stereo not drawn)	male Sprague-Dawley rat	intravenous, 18 mg/kg, single dose, infusion	5880 ng/mL
